Results gathered from unrelated publications.
A part holds a random share of what one study measured.
UniProt O14965, sequence (whole entry, looked up): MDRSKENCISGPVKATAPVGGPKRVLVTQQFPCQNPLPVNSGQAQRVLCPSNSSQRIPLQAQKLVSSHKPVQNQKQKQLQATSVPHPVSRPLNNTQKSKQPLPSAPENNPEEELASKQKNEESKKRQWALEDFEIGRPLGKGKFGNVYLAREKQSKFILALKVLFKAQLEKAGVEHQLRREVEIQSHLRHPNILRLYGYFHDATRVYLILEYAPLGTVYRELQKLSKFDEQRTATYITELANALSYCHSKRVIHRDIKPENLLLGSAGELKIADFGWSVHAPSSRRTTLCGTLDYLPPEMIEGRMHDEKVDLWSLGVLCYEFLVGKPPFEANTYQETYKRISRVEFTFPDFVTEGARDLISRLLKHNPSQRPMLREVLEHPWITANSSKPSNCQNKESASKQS

Sample 1 — method: RNA Bind-n-Seq; molecule type: RNA; medium: in vitro; concentration: not given; relative to: input RNA pool; reading: higher = stronger binding; quantity: bound/input enrichment
Target: RING finger protein unkempt homolog, zinc fingers 1-6, GST-SBP tag (UNK, Homo sapiens, UniProt Q9C0B0, residues 30-357)
UniProt Q9C0B0, sequence (30-357, looked up): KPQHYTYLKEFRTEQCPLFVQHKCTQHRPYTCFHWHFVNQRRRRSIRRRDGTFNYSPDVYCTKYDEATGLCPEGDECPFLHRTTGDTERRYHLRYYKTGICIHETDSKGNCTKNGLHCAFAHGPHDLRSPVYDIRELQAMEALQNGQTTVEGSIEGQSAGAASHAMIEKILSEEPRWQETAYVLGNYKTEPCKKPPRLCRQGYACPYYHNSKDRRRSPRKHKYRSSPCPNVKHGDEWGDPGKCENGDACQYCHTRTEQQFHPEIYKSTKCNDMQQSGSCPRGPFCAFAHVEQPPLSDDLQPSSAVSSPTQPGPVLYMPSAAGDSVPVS
Setting: RNA with constant flanks, human and mouse sites, ends assumed
Shared flanks, not repeated: GGGAGUUCUACAGUCCGACGAUC … CAACAGAGGAUUGAGCAUCA
Sequence = GAACGAGAAAUGCAAAACCUCAGUCAACAUGGUAGAAAAAAUAAUUGGCCACCUCUUCCUAGCAAUUUUCCUGUCGGACCUUGUUUCUAUCAGGAUUUUUCUGUAGACAUUCCUGUAGAA; result = 2.42 ratio
Sequence = UUGGACAUCCUCCUUCAGGACACCACCACAGAACCUUUGAGCCUGCUCGAAACCCCCCAGGAGACAACGCUUUAUACCAACAGUGUGCCUAAGCCUAGGAUCUUGGAUGCUGAACUUGAA; result = 0.223 ratio
Sequence = AAAACAGAAAAUGGUGCUGGAGACCAGUAGUUUAGUAAACCAAUUUUUUAUUCAUUUUAAAUAGGUUUUAAACGACUUUUGUUUGCGGGGCUUUUAAAAGGAAAACCGAAUUAGGUCCAC; result = 2.53 ratio
Sequence = AUGAUAUAAAACAUUUUGUGUUUCAUCUACCCAUUCAGCAAGAAUGAGUCCAGUCCCAUGUUUAGAUUAUUUUAACAUAAUUUGUGAAUGAUAGUUUCACAUUUGGCUGAUGGUUUGCAG; result = 2.97 ratio
Sequence = AUUAGUGUUAUUUAUGGCUAGAAAAGCAUGCUUCUAUUUAAGCUGUAAAAAGGAUUGUCGAAUAGUUACUGUAAAUAUAUGUUGACAUAGUAAAGCUUGGAAUGUCUUAUGUCCCUGGUG; result = 2.9 ratio
Sequence = AAGUUUGGAUUUGAAAUUAGUUUUCCUGAAUUUUGUUUAAAAGGAGUUACGCCUACGAAUGUUAGUGCGUAUAAUUUAAAUACCUGCUUCCUUGCCAAGAAGAUAGCAUCUUCUAAGGUU; result = 0.608 ratio
Sequence = GGCAUUUUUUCCCAGAAUUUUAUCUUUUAGAUAUGAUUUUUACAGGUUGACCAAAAUCAAGGGGCUUGGUUUCAUUGUAUGAUCUUCAUUUCUCAAUAUUAAGGGUUUCAUCAAGGCCUU; result = 0.227 ratio
Sequence = UGGCUUCAGGAUGUAGAGGGCCUGCAGGCUGGAGGACGUGUGCCAGUGUUAGACACACUCAUAGAACUUGUUACACGAGGCCGAUCUAUCCCCGUACAUCUGAAUUCUUUGCCAAGACUG; result = 0.177 ratio

Sample 2 — method: protein binding microarray; molecule type: double-stranded DNA, one strand shown; medium: in vitro; concentration: not given; relative to: not given; reading: higher = stronger binding; quantity: E-score
Target: Histone acetyltransferase KAT6A, both winged helices, GST fusion (KAT6A, Homo sapiens, UniProt Q92794, residues 1-181)
Setting: 8-mer, flanks averaged, mean of 2 arrays, mostly near background
Residues (chain): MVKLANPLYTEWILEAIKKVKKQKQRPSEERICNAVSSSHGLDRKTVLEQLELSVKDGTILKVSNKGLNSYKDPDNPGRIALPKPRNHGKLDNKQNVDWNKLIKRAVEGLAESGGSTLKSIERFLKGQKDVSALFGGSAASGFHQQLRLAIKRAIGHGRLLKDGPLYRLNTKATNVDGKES
Sequence = CATCTGGC; result = -0.123
Sequence = TGAAGGCA; result = -0.0927
Sequence = GATGACGC; result = 0.117
Sequence = CTGTTTGA; result = -0.157
Sequence = CAAACACG; result = 0.129
Sequence = ACGTCACT; result = -0.0601
Sequence = CCGTAATA; result = 0.166
Sequence = GGGGTTTA; result = -0.0205

Further values, each from its own experiment
Molecule = RPN1 (Homo sapiens, UniProt P04843); target or system = STT3A (Homo sapiens, UniProt P46977); test = cross-linking MS; system = cell fractions; setting = with: DSSO; quantity = cross-linked residues; result = K599 to K440
Molecule = Cc1cc2ncc(-c3ccccc3)nc2cc1C; target or system = Aurora kinase A (AURKA, Homo sapiens, UniProt O14965); test = enzyme activity, inhibitor; setting = 0.5 µM; scale = relative to: control; quantity = remaining activity; result = 92.1%

Excerpt of the above (sample 2):
Sequence = CATCTGGC; result = -0.123
Sequence = CTGTTTGA; result = -0.157
Sequence = TGAAGGCA; result = -0.0927
